Experimental data gathered from unrelated publications.
Lines come from different studies, so protocols differ.

| SMILES | test | test system | conditions | emission maximum [nm] |
| --- | --- | --- | --- | --- |
| COCCOCCOCCOc1ccc(/C=C/c2c(I)c(C)c3n2[B-](F)(F)[N+]2=C(C)C(I)=C(C)C2=C3c2cc(OC)cc(OC)c2)cc1 |  | DMSO |  | 624 |
| O=c1[nH]c(=O)n(C2OC(CO)C(O)C2O)cc1-n1nnc2c1CCC1C(CO)C1CC2 (mixture of isomers) |  | methanol |  | 312 |
| COCCOCCOCCOc1ccc(/C=C/C2=[N+]3C(=C(c4cc(OC)cc(OC)c4)c4c(C)c(I)c(/C=C/c5ccc(OCCOCCOCCOC)cc5)n4[B-]3(F)F)C(C)=C2I)cc1 |  | dichloromethane |  | 687 |
| COC(=O)c1ccccc1-c1c2ccc(=[N+](C)C)cc-2oc2c1ccc1cccc(N)c12 |  | phosphate buffer | pH 7.4, 10% DMSO | 770 |
| COc1cc(OC)cc(C2=C3C(C)=C(I)C(/C=C/c4c[nH]c5ccccc45)=[N+]3[B-](F)(F)n3c(/C=C/c4c[nH]c5ccccc45)c(I)c(C)c32)c1 |  | DMSO |  | 771 |
| COc1ccc(/C=C/c2ccc(-c3ccc(C)cn3)nc2)cc1 |  | aqueous HEPES buffer | pH 7.4, zinc(II) complex | 513 |
| COc1cc(OC)cc(C2=C3C(C)=C(I)C(C)=[N+]3[B-](F)(F)n3c(/C=C/c4c[nH]c5ccc([N+](=O)[O-])cc45)c(I)c(C)c32)c1 |  | THF |  | 635 |
| CCCCN1C(=O)c2cccc3c(NCCCCCCN4CCOCC4)ccc(c23)C1=O |  | toluene |  | 502 |
| CC1=CC(C)=[N+]2C1=C(CCCC(=O)NCCCCCC(=O)NCCCC[C@H](NC(=O)N[C@@H](CCC(=O)O)C(=O)O)C(=O)O)c1c(C)cc(C)n1[B-]2(F)F |  | acetonitrile/water |  | 506 |
| Cc1ccc(-c2ccc(-c3cc4sccc4o3)cn2)nc1 |  | acetonitrile | zinc complex | 505 |
| CC1(C)C(/C=C/C2=C(Cl)C(=C/C=C3/N(CCCCCC(=O)O)c4ccccc4C3(C)C)/C[N+](C)(C)C2)=[N+](CCCCCC(=O)O)c2ccccc21 |  | 10 mM PBS | pH 7.4 | 768 |
| COc1ccc2c(c1)c(CC(=O)NCCNS(=O)(=O)c1cccc3c(N(C)C)cccc13)c(C)n2C(=O)c1ccc(Cl)cc1 | fluorescence spectroscopy |  | pH 7 | 493 |
| CCCCN1C(=O)c2cccc3c(NCCCCN4CCOCC4)ccc(c23)C1=O |  | aqueous medium | pH 6 | 554 |
| Nc1ncnc2c1nc(-n1nnc3c1CCC1C(CO)C1CC3)n2C1OC(CO)C(O)C1O (mixture of isomers) |  | methanol |  | 392 |
| COC(=O)c1cc(=O)n(C)c2c(-c3ccc(OC)cc3)csc12 |  | dichloromethane | 10 µM | 446 |
| CCn1cc(/C=C/c2sc3ccccc3[n+]2CC)c2ccccc21 |  | MeOH | together with: excitation 488 nm | 540 |
| NCCC(=O)N1Cc2ccccc2-c2c(nnn2-c2nc(N)c3ncn(C4OC(CO)C(O)C4O)c3n2)-c2ccccc21 (mixture of isomers) |  | DMSO |  | 422 |
| COc1cc(OC)cc(C2=C3C(C)=C(I)C(/C=C/c4cccs4)=[N+]3[B-](F)(F)n3c(/C=C/c4cccs4)c(I)c(C)c32)c1 |  | THF |  | 680 |

Excerpt of the above:
| SMILES | test | test system | conditions | emission maximum [nm] |
| --- | --- | --- | --- | --- |
| Cc1ccc(-c2ccc(-c3cc4sccc4o3)cn2)nc1 |  | acetonitrile | zinc complex | 505 |
